# Results collected from several papers.
# Each line is one published result; not all experiments were run side by side. ± marks the error that the study gave.
SMILES,tested on,test,test system,setting,how to read,quantity,value
C=CCO/N=C(\C(=O)N[C@@H]1C(=O)N(OS(=O)(=O)O)C1(C)C)c1nsc(N)n1,Proteus vulgaris,agar dilution,"ATCC 29905, susceptible",,,MIC,≤ 0.03 µg/mL
COC(=O)CNC(=O)c1ccc(NC(=O)c2[nH]c(C)c(Cl)c2Cl)c(N2CCN(C(=O)OC(C)(C)C)CC2)c1,Klebsiella aerogenes,"microbial growth, broth dilution",ATCC13408,,,MIC,> 32 µg/mL
CC1(C)[C@H](NC(=O)/C(=N\OCC(=O)N2CCC(C(=O)O)CC2)c2csc(N)n2)C(=O)N1OS(=O)(=O)O,Shigella flexneri,agar dilution,"ATCC 12022, susceptible",,,MIC,2 µg/mL
CC[C@H](C)[C@@H]1NC(=O)[C@@H]([C@@H](C)O)NC(=O)CNC(=O)[C@H](CC(=O)O)NC(=O)CNC(=O)[C@H](CC(=O)O)NC(=O)CNC(=O)[C@H]2CCCCN2C(=O)[C@@H](NC(=O)[C@H](CC(=O)O)NC(=O)/C=C/CCCCCCCCCC(C)C)CNC(=O)[C@@H]2CCCN2C1=O,Staphylococcus aureus,broth microdilution,"MRSA USA300, Mueller-Hinton broth, Mg2+ 10 mg/L","16 h, 37 °C, with: Ca2+ 2.5 mM",,MIC,4 µg/mL
CCNC(=S)NN=Cc1c2ccccc2cc2ccccc12.Cc1ccc(C(C)C)cc1.[Cl-].[Cl-].[Ru+2],"Salmonella typhimurium, Pseudomonas aeruginosa, Escherichia coli",broth microdilution,,tested 2 to 50 µM,,MIC,inactive
O=CCNCCOn1c(=O)n(OCCNCCO)c(=O)n(OCCNCCOn2c(=O)n(OCCNCCO)c(=O)n(OCCNCCO)c2=O)c1=O,Bacillus cereus,"microbial growth, broth dilution",,,,MIC,1 µg/mL
CO[C@H]1O[C@H](COC(c2ccccc2)(c2ccccc2)c2ccccc2)[C@@H](OS(=O)(=O)c2ccccc2)[C@H](OS(=O)(=O)c2ccccc2)[C@H]1OS(=O)(=O)c1ccccc1,Bacillus cereus,"microbial growth, broth dilution",,,,MIC,0.5 µg/mL
Cc1c(CN(C)C(=O)/C=C/c2cnc3c(c2)CC(N)C(=O)N3)oc2ccccc12 (stereo not drawn),Escherichia coli,"microbial growth, broth dilution",BAA2471,clinical isolate,,MIC,4 µg/mL
COC1CN([C@H]2CC[C@H]([C@@]3(C)Oc4c(Cl)cc(C(=O)NCc5c(SC)cc(C)[nH]c5=O)c(C)c4O3)CC2)C1,,"RNA-seq, refers to: PCGF5","human, whole blood","dose not given, 24 h",relative to: pretreatment baseline,log2 fold change,1.15
C[C@@H]1C(=O)O[C@@H](C)/C=C/C=C\[C@@H](C)[C@@H]2C=C[C@@H]3C[C@@]4(C)O[C@H]4[C@@H](C)[C@H]3[C@@H]2C(=O)C(Cl)(Cl)C1=O,Staphylococcus aureus,,MRSA clinical isolate,resistant: OXA,,MIC,0.1 µg/mL
CN(Cc1ccc(C2(C(F)(F)F)CCC2)cc1)Cc1cccc2ccccc12,Trichophyton rubrum,"microbial growth, broth dilution",ATCC28188,6 days,,MIC,1000 µg/mL
CC1C=CC=CC(C)C2C=CC3CC(C)(O)C(Cl)C(C)C3C2C(=O)C(Cl)(Cl)C(=O)C(C)C(=O)O1 (stereo not drawn),Staphylococcus aureus,,MRSA clinical isolate,"resistant, OXA, CIP, MXF, GEN, CLI",,MIC,0.05 µg/mL
CC1(C)C(NC(=O)C(=NOC2(C(=O)O)CCC2)c2csc(N)n2)C(=O)N1OS(=O)(=O)O (stereo not drawn),Proteus vulgaris,agar dilution,"ATCC 29905, susceptible",,,MIC,≤ 0.03 µg/mL
CCCC(C)Oc1cccc(NC(=O)c2cccnc2)c1 (stereo not drawn),Nakaseomyces glabratus,"microbial growth, broth dilution",MY1381,,,MIC,32 µg/mL
CC1(C)[C@H](NC(=O)/C(=N\OCCN)c2nsc(N)n2)C(=O)N1OS(=O)(=O)O,Shigella flexneri,agar dilution,"ATCC 12022, susceptible",,,MIC,8 µg/mL
C[n+]1ccc(/C=N/NC(=O)c2cccc(C(=O)N/N=C/c3cc[n+](C)c4ccccc34)c2)c2ccccc21,MYC parallel G4 DNA,FRET melting,,"1 µM, DNA 0.2 µM, with: duplex DNA competitor 10 µM",,ΔTm,4.6 ± 0.2 °C
C#CCNC(=O)C(C)(C)O/N=C(\C(=O)N[C@@H]1C(=O)N(S(=O)(=O)O)[C@H]1C)c1csc(N)n1,Proteus vulgaris,agar dilution,ATCC 29905 susceptible,,,MIC,0.125 µg/mL
O=C(N/N=C/c1cc[n+](Cc2ccccc2)c2ccccc12)c1ccc2ccc(C(=O)N/N=C/c3cc[n+](Cc4ccccc4)c4ccccc34)nc2n1,MYC parallel G4 DNA,FRET melting,,"1 µM, DNA 0.2 µM, with: duplex DNA competitor 10 µM",,ΔTm,13.2 ± 0.2 °C

# Repeated from above:
SMILES,tested on,test,test system,setting,how to read,quantity,value
COC(=O)CNC(=O)c1ccc(NC(=O)c2[nH]c(C)c(Cl)c2Cl)c(N2CCN(C(=O)OC(C)(C)C)CC2)c1,Klebsiella aerogenes,"microbial growth, broth dilution",ATCC13408,,,MIC,> 32 µg/mL
